Measured values pooled from the literature.
Compare with care: the assays were run in different laboratories. Numbers after ± are the reported error.

| SMILES | method | sample | tested at | time | pH | temperature | fu |
| --- | --- | --- | --- | --- | --- | --- | --- |
| C/C(=N\c1ccc(O)cc1)c1cc2ccccc2n1C | ultrafiltration | rat plasma | 200 ng/mL | 1 h | – | 37 °C | 0.007 |
| Cc1cc(C)c(CNC(=O)c2cc(Cl)c3c(c2C)O[C@@](C)([C@H]2CC[C@H](N(C)C)CC2)O3)c(=O)[nH]1 | ultracentrifugation | 0.1% human alpha-1-acid glycoprotein | 1000 ng/mL | 160 min | – | – | 0.088 |
| Cc1nc2ccc(OCc3ccc(C(F)(F)F)cc3)cc2[nH]1 | rapid equilibrium dialysis | mouse plasma | 2 µM | 4 h | – | 37 °C | 0.27 |
| COc1ccc([C@@H]2Sc3ccccc3N(CCN(C)C)C(=O)[C@@H]2OC(C)=O)cc1 | equilibrium dialysis | human plasma | 2 µM | 20 h | pH 7.4 | 37 °C | 0.299 ± 0.027 |
| OCc1nc2ccc(NCc3ccc(C(F)(F)F)cc3)cc2[nH]1 | rapid equilibrium dialysis | mouse brain homogenate | 2 µM | 4 h | – | 37 °C | 0.0454 |
| COc1ccc2cc(CCC[18F])ccc2c1 | gel filtration | human plasma | – | 60 min | – | 37 °C | 0.215 |
| Cc1cnc(N2CC3(CCOCC3)C2)c(C(=O)Nc2ccc(C(=O)N3CCc4cc(C(=O)Nc5c(C)cccc5F)sc4-c4ccccc43)cc2)c1 | – | human plasma | – | – | – | – | 0.01 |
| COc1ccc(CCNCCCC(C#N)(c2ccc(OC)c(OC)c2)C(C)C)cc1OC (stereo not drawn) | equilibrium dialysis | human plasma | 2 µM | 20 h | pH 7.4 | 37 °C | 0.145 ± 0.023 |
| CC(=O)N1CCN(c2ccc(OCC3COC(Cn4ccnc4)(c4ccc(Cl)cc4Cl)O3)cc2)CC1 (stereo not drawn) | equilibrium dialysis | pooled human plasma | – | – | – | – | 0.0163 |

Some of these lines once more:
| SMILES | method | sample | tested at | time | pH | temperature | fu |
| --- | --- | --- | --- | --- | --- | --- | --- |
| C/C(=N\c1ccc(O)cc1)c1cc2ccccc2n1C | ultrafiltration | rat plasma | 200 ng/mL | 1 h | – | 37 °C | 0.007 |
